Published values pooled from the literature.
Each numbered part is a random draw from the data of one study; scales do not carry over between parts. Positions count from the first letter of the parent shown.

Study 1
Target: ABI1, truncated, D143A, DHFR fusion (Arabidopsis thaliana)
Technique: DHFR PCA, deep sequencing
Medium: yeast
Notes: methotrexate growth selection, single substitutions
Added: (+)-ABA 200 µM
Baseline: wild-type fitted maximum
Reading: higher = stronger binding
Starting sequence: PYL1, truncated, DHFR fusion (Arabidopsis thaliana); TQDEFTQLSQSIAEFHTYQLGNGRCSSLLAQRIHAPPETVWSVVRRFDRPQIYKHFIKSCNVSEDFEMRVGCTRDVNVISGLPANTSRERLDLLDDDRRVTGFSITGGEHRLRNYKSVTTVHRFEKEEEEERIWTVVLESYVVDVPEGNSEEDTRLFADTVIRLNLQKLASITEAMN; partner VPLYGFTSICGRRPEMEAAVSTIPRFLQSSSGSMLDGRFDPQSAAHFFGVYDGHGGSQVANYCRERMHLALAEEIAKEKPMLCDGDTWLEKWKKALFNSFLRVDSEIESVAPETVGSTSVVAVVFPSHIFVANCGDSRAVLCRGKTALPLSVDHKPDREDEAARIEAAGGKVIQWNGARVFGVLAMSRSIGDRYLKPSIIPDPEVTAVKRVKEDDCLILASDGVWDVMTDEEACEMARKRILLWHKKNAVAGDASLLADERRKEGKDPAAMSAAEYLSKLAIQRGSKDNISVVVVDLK
`Y115R` — result for “relative binding score”: -11.6%.
Under “relative binding score”, `P83D` is recorded as 78.1%.
For `I162V`, “relative binding score” read 104%.
`D144E` — result for “relative binding score”: 85.5%.
For `T173W`, “relative binding score” read 65.4%.
`G102P` — result for “relative binding score”: -2.44%.
`F5S` — result for “relative binding score”: 90%.
For `R32K`, “relative binding score” read 102%.
Under “relative binding score”, `E131T` is recorded as 107%.
`I105R` — result for “relative binding score”: -11.1%.
`N165M`: “relative binding score” 2.99%.

Study 2
Target: Interferon regulatory factor 7, full length, phosphomimetic (IRF7, Homo sapiens, UniProt Q92985, residues 1-503, S471D/S472D/S475D/S476D/S477D/S483D/S484D/S487D)
Technique: protein-binding microarray
Form: double-stranded DNA, one strand shown
Medium: in vitro
Tested at: 2200 nM top
Notes: 60-bp whole probe
Added: salmon DNA 0.4 mg/ml
Baseline: random background probes
Reading: higher = stronger binding
Constant ends, left off below: GCCTAGCAC … GTCTTGATTCGCTTGACGCTGCTG
Residues (chain): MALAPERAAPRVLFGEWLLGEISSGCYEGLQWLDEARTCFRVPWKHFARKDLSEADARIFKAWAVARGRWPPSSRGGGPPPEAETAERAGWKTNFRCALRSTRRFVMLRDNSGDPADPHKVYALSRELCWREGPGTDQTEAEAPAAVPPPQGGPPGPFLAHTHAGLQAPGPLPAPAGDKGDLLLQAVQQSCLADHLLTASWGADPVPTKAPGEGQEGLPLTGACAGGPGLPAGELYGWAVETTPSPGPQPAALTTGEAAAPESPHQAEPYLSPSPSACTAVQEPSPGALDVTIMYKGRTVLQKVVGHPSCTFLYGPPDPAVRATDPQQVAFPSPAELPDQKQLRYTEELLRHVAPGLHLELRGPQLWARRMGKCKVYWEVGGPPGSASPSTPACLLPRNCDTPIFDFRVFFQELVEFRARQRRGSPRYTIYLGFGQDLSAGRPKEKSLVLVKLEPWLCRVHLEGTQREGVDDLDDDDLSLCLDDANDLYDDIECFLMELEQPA
`TTAGGTTTCCGGTATCGGTTAGTGCTA` — result for “fitted relative affinity”: 2.61 z-score.
`GACGATTTAAGTCTCGAGACGTGCTAG`: “fitted relative affinity” 0.136 z-score.
Under “fitted relative affinity”, `GACGGTTTCGACTTTCGGGGCGTGCTA` is recorded as 8.19 z-score.
For `TCAAAGATCATTCTCACACTGTGCTAG`, “fitted relative affinity” read 0.32 z-score.
`TTAGATATCAGTCTCGATTTGTGCTAG` — result for “fitted relative affinity”: 1.29 z-score.
For `GACGGATTCGACTATCGGGACGTGCTA`, “fitted relative affinity” read 0.489 z-score.
`TTAGATCTAAGACTGGATTAGTGCTAG`: “fitted relative affinity” -0.501 z-score.
For `TTAGGACCGGACTATCGGTTAGTGCTA`, “fitted relative affinity” read -0.448 z-score.
For `TTAGGTCTCGGTATCGGTTCGTGCTAG`, “fitted relative affinity” read 1.49 z-score.
`CAAACACTAGTTTTCATTTTGTGCTAG` — result for “fitted relative affinity”: 3.37 z-score.
For `TTTTTTTTTTTTTTTTTGGAGTGCTAG`, “fitted relative affinity” read 1.83 z-score.
`TTAGGACCGGGACTGGGTTAGTGCTAG`: “fitted relative affinity” -0.9 z-score.
`TTAGGTTTAGACTATCGGTTAGTGCTA` — result for “fitted relative affinity”: 0.0695 z-score.
Under “fitted relative affinity”, `TCAACTTTCCAAAGCGTACTGTGCTAG` is recorded as 1.62 z-score.
For `TCAATTATTTATTGTAGCACTGTGCTA`, “fitted relative affinity” read -0.184 z-score.
For `GACGGTCTCCTACTGCTGGCGTGCTAG`, “fitted relative affinity” read 0.322 z-score.
For `TTAGGTATCATTCTCCTTTAGTGCTAG`, “fitted relative affinity” read 0.972 z-score.
Under “fitted relative affinity”, `TCAGCTCCAGGTTCTCTGACTGTGCTA` is recorded as 0.202 z-score.
Under “fitted relative affinity”, `AATCATTTTAGTTTTCATTAGTGCTAG` is recorded as 2.41 z-score.
`TTAGGCATCGGGTATCGGTTAGTGCTA`: “fitted relative affinity” -0.108 z-score.

Study 3
Target: RNA binding protein fox-1 homolog 2, RRM domain, GST-SBP tag (RBFOX2, Homo sapiens, UniProt O43251-10, residues 100-194)
Technique: RNA Bind-n-Seq
Form: RNA
Medium: in vitro
Tested at: 365 nM
Notes: natural RNA segment, single round, ends assumed
Baseline: no-protein control
Reading: higher = stronger binding
Construct (chain): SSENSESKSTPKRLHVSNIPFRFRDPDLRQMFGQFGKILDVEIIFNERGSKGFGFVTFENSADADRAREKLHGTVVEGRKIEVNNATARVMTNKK
For `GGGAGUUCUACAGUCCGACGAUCAUCUUCCUGGCACUUAGUGUUUCUAUGUUAUUGAAAAAUGAUGUUCCAGAAAGAUUACUUUUUUCCUCUUAUUUUUACUGCCAUUGUCGACCUAUUGUGGGACAUUUUUAUGGAAUUCUCGGGUGCCAA`, “RBNS enrichment (R)” read 0.517.
Under “RBNS enrichment (R)”, `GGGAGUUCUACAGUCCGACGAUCAGUGGUGUUUCUACUCCAGUGAGGUACUUUCUACCAUGGUGUGCCUUUUGCUGUGAGUGACUUAACAGUGCAGGUUCUUGUUGCCUUCACUGUUAACCCUGAGAGCACAUUGGAAUUCUCGGGUGCCAA` is recorded as 0.227.
`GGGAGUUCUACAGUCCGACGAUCGUUUAGAUGCUGUGAAAUUAAACCUGUUCUAAGUGUACUUGUUUGAAUUAAUUGUAUUGUAAUAUUAUUUGUUGAAUGUAGUAAUUAGGUAUUUAUGAAUAUAUUGCUGUUGGAAUUCUCGGGUGCCAA`: “RBNS enrichment (R)” 0.884.
`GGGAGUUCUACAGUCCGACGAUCCUGUGUCUGGUUAUGUUGUCUGCACUUUUAUGAAAUCACUACAAUAGGUCUGCAUUGGAAAUGACUAUUAAUUUGUAAAGAAGUAAGUUUUAUUAAACACUGUCUAGAAAUGGAAUUCUCGGGUGCCAA`: “RBNS enrichment (R)” 1.11.
Under “RBNS enrichment (R)”, `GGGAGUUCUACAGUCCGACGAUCGGCUCAGGCACCCUGGUUUUAAUCCCUUGAGGAUCUGGCAAUUGGCUUACGUAAAGAAAGGGUCACCAUUUGAGGUCCUGCCUUACCAAUUAUGUGCUGCCCAACAACUAUGGAAUUCUCGGGUGCCAA` is recorded as 0.328.
Under “RBNS enrichment (R)”, `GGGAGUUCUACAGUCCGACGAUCCUCAUUCCUUUCCUCUGGCCCAGUGAAUUUGGUCUCUCCCAGCUCUGGGGGACUCCUUCCUUGAACCCUAAUAAGACCCCACUGGAGUCUCUCUCUCUCCAUCCCUCUCCUGGAAUUCUCGGGUGCCAA` is recorded as 0.565.
For `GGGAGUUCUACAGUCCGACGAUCAUCCUUAUAAACUCCACUUUGUACUUUAGAUUUUAAAACUGGGGAAAAAUGUGAUAUUCUUUGGACCACUUUUUUAAUUUAUAUAAGCCUUAAUGAACAGUGUCUAUACAUGGAAUUCUCGGGUGCCAA`, “RBNS enrichment (R)” read 0.515.
`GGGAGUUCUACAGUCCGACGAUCACUUUGUACAAAUUUUGUCAUGCUGGAUGUUAACACAUCUUACUCUAAAUAAACAAGGUGUUGCCACUUUGUAGCACGAAGGAUCUCUAACCCGGGUCUGCGUCUUCACUUGGAAUUCUCGGGUGCCAA`: “RBNS enrichment (R)” 0.231.
For `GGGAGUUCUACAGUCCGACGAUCGUGCAGGGGUUCUUUUCAGUUAGAAAAGGCAGGUUGCUUUAAUGUUAUUCUGACUCGCAUUGUUUGCCAACAGAAAAUAUUUUAUACUUUUGUUAUUAAAGCAUCCAGGGUGGAAUUCUCGGGUGCCAA`, “RBNS enrichment (R)” read 0.646.
Under “RBNS enrichment (R)”, `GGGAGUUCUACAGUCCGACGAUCGAUCUACCAGCAAAUGAGGGCGAACAGCUAAUCCACGUGGCUUUGUCCCAGACUUCCUUUGUCUUCAACAACCUUCUGCAAGAAAACCAAGGGCCUGAAUUUUAACUUCCUGGAAUUCUCGGGUGCCAA` is recorded as 0.587.
`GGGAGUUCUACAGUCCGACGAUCUCUACCAAAAACAGGGCUAAGGGCUGGAGAUGGAUCCCCGUUCCUUGUCCAGCCUCCUGCUACCGCUGCCCACCUCCUGCCUCCAUUGCCCAGGCCACACUAGUUGGCCCUGGAAUUCUCGGGUGCCAA`: “RBNS enrichment (R)” 0.434.
`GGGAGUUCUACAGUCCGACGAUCAGAUCCUCUCAAGUGUCUAUUAGAUAGGCAAUAAGAACUGCAGUGUAGCUGGGAAGCAUCUUUUAGCCGACUAUACAUCACUUUGUUUUGAAACAAGGAAGCUGCGCUCUUGGAAUUCUCGGGUGCCAA`: “RBNS enrichment (R)” 0.366.

Study 4
Target: CCND1, cyclin fold, Cln2 fusion (human)
Technique: yeast growth competition, sequencing
Medium: yeast
Notes: weak parent motif
Baseline: not given
Reading: higher = stronger binding
Starting sequence: CDC6 docking peptide (human); TLKGRRLVFDNQL
Under “normalised enrichment score”, `R6N` is recorded as 0.32.
`K3M`: “normalised enrichment score” -0.0153.
Under “normalised enrichment score”, `F9R` is recorded as -0.44.
`D10L` — result for “normalised enrichment score”: -0.0138.
Under “normalised enrichment score”, `R5F` is recorded as 0.682.
Under “normalised enrichment score”, `L2I` is recorded as 0.623.
`R5P` — result for “normalised enrichment score”: 0.329.
For `N11S`, “normalised enrichment score” read 0.0624.
Under “normalised enrichment score”, `Q12Y` is recorded as 0.427.
`L13E`: “normalised enrichment score” 1.09.
Under “normalised enrichment score”, `K3A` is recorded as 0.432.
`D10T`: “normalised enrichment score” -0.283.
For `D10H`, “normalised enrichment score” read -0.43.
`K3F`: “normalised enrichment score” 0.0511.
`L13Y` — result for “normalised enrichment score”: 0.339.
For `L7W`, “normalised enrichment score” read 0.377.
`G4D` — result for “normalised enrichment score”: 1.02.
`R5G` — result for “normalised enrichment score”: 0.122.
Under “normalised enrichment score”, `F9G` is recorded as -0.444.
Under “normalised enrichment score”, `T1S` is recorded as 0.297.
`D10Y` — result for “normalised enrichment score”: 0.418.
For `K3Y`, “normalised enrichment score” read 0.566.
`T1H` — result for “normalised enrichment score”: 0.441.
`L7G`: “normalised enrichment score” 0.0358.
For `N11E`, “normalised enrichment score” read 0.807.
